Assay results collected from several papers.
Parts stem from different laboratories: compare values within a part only. Changes are numbered by the printed parent chain.

Set 1
Target: Interferon regulatory factor 7, full length, phosphomimetic (IRF7, Homo sapiens, UniProt Q92985, residues 1-503, S471D/S472D/S475D/S476D/S477D/S483D/S484D/S487D)
Technique: protein-binding microarray
Form: double-stranded DNA, one strand shown
Matrix: in vitro
Tested at: 2200 nM top
Notes: 60-bp whole probe
Together with: salmon DNA 0.4 mg/ml
Reference: random background probes
Direction: higher = stronger binding
Measurement: fitted relative affinity
Shared flanks, not repeated: GCCTAGCAC … GTCTTGATTCGCTTGACGCTGCTG
Residues (chain): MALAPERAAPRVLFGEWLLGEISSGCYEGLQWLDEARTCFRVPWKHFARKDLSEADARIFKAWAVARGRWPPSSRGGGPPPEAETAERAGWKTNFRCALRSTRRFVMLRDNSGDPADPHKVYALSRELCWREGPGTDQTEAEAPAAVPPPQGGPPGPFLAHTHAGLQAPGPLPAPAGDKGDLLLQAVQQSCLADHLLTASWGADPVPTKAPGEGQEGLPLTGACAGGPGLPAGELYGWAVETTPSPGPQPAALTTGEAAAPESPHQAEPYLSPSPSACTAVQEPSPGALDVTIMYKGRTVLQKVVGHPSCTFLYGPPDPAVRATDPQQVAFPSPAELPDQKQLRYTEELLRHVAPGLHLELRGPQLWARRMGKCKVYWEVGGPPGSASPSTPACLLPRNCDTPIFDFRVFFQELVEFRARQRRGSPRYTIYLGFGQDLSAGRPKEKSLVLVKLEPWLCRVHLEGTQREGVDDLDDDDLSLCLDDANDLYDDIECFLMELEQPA
Strand = TAAGATATCAGTCTCGATTAGTGCTAG; value = 0.221 z-score
Strand = TCACATGTTTTTTTCTAACTGTGCTAG; value = 1.53 z-score
Strand = GACGATCTCAGATTCGAGACGTGCTAG; value = 0.616 z-score
Strand = TTAGATATCAGACGGGATTAGTGCTAG; value = -0.312 z-score
Strand = TCAGCATTCCCTTTCTCACTGTGCTAG; value = 2.44 z-score
Strand = CTTCATGTTTTTTTCTACTTGTGCTAG; value = 2.88 z-score
Strand = GAAGGTTTCGACTATCGGGACGTGCTA; value = 2.82 z-score
Strand = GACGGTATCGACTATCGGGATGTGCTA; value = -0.0316 z-score
Strand = CTTCTCCTCCAGGTTCTCTGAGTGCTA; value = 0.715 z-score

Set 2
Target: CEP164, C-terminal peptide (human)
Technique: DHFR complementation, deep sequencing
Matrix: yeast
Notes: single substitutions, model-inferred values
Reference: wild type
Direction: higher = weaker binding
Measurement: binding free energy change
Starting sequence: PDZK1, PDZ domain 2 (human); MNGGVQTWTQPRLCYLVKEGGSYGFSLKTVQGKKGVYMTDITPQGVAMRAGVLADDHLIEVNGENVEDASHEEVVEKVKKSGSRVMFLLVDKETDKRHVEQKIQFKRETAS; partner HNRVKVYRF
Substitution = Q101H; value = -0.0716 kcal/mol
Substitution = E108F; value = -0.277 kcal/mol
Substitution = K77V; value = 0.246 kcal/mol
Substitution = A69N; value = -0.163 kcal/mol

Set 3
Target: RNA binding protein fox-1 homolog 2, RRM domain, GST-SBP tag (RBFOX2, Homo sapiens, UniProt O43251-10, residues 100-194)
Technique: RNA Bind-n-Seq
Form: RNA
Matrix: in vitro
Tested at: 365 nM
Notes: natural RNA segment, single round, ends assumed
Reference: no-protein control
Direction: higher = stronger binding
Measurement: RBNS enrichment (R)
Shared flanks, not repeated: GGGAGUUCUACAGUCCGACGAUC … UGGAAUUCUCGGGUGCCAA
Strand = ACUAUAAUAGAGUUAUUUAAUUUUAAUUUGUUGAAUUAUUAGUUACCACUGUCAUUUCUUCAGCUAUGGAUAUGUGGCUGAUGUUGGGGAGACGGACCUCAGUGUGUUUU; value = 0.791
Strand = AAAUUGCACCACACAAGUAGCAGUUCAUAAGAAUAAAAUGUGCUUAUUUUACGCAUGGUCCAUAAAAUGAUUUGAUACUCUUUUAAAGUGUAUGUGGUCCAUUAGAAAGG; value = 0.84
Strand = UGUUCCUCUCUCAGGAUCUGUAUGUAAGUGAAAAGCAUCACCAUCUACCCAUUGGCUCAAGCAGAAAUCUGGAAGUCAUCUUUGACUCCUUCCUCUCCCUCCUGAUAAAC; value = 0.817
Strand = GAGUUUUCAGAUCAAAAACUGGUUACCAUUUUUUGUCAGAGUGUCUGAUGCGGCCACUCAUUCGGCUCCCCAGAAUUCCUAGACUGGGUUAAUAGGGUCAUAUUGUGAAU; value = 1.24
Strand = CACUGUCACAGUCUACCACAGCCUCCCUGUCCAAGAAGUGCUGUUGAGAGGCGAGGAGGUAGUGGGUGAGGCUACCUGACUCACUUCAAAUGCAUGUUUUGAGAUGUUUG; value = 27
Strand = GCUCUUGGAUGUUGGGAGUGUAGCAGGCACAGGAGGUACCUCUGCAGAAGGAAGGCGGAGGGUGGAGGCCUUGCCUUUCCAUAUUCACCUAGGUCUUGUCUUUCAACUUG; value = 1.09
Strand = UCAUUUGUGUGAUGUGUUUGGCCUUACCAAAGCAAAAGAGGGUGCAAGAAUGUGGGAGUAUGUCUGCCGGUUUCAACACACACAGACAAACACAGCCACACGCGCACACA; value = 0.422

Single results of other studies
Substance = PhoQ, residues 284 288 289 292 302 303 HSYLQF; target = PhoP, residues 12 14 15 18 19 NFCKL (Escherichia coli, UniProt P23836); assay = Sort-seq, refers to: YFP reporter; test system = E. coli; conditions = PhoQ-PhoP variant library, together with: 10 µM Mg2+; scale = reference: high Mg2+ state, higher = stronger signaling; measurement = fold induction; value = 0.871

For quick reference, copied from above (set 1):
Strand = TAAGATATCAGTCTCGATTAGTGCTAG; value = 0.221 z-score
Strand = TCACATGTTTTTTTCTAACTGTGCTAG; value = 1.53 z-score
Strand = GACGATCTCAGATTCGAGACGTGCTAG; value = 0.616 z-score
